{"data": "Experimental data pooled from the literature", "ALB": "Albumin (ALB, Homo sapiens, UniProt P02768)", "GUK1": "GUK1 (Homo sapiens, UniProt Q16774)", "uncharacterized protein": "uncharacterized protein (Spodoptera exigua, UniProt F1CEY0)", "note": "Protocols differ between the studies behind these lines. Values joined by “and” are separate records of one study, mostly repeats; a detail may differ. Numbers after ± are the reported error."}
{"Compound": "Nc1ncnc2c1ncn2[C@@H]1O[C@H](COP(=O)(O)CP(=O)(O)OP(=O)(O)O)[C@@H](O)[C@H]1O", "target": "P2X purinoceptor 1 (P2RX1, Homo sapiens, UniProt P51575, R139P)", "test": "saturation binding", "test system": "HEK293", "conditions": "52 nM", "quantity": "specific binding", "value": "963 CCPM and 916 CCPM"}
{"Compound": "O=c1nc(SCc2cc(F)cc(C(F)(F)F)c2)nc(SCc2csc3ccc(Cl)cc23)[nH]1", "target": "TOP2B (Homo sapiens, UniProt Q02880)", "test": "decatenation", "conditions": "31.25 µM, replicate 1", "quantity": "decatenated DNA", "value": "0.3%"}
{"Compound": "COc1cc(-c2[o+]c3cc(O)cc(O)c3cc2O[C@@H]2O[C@H](CO)[C@@H](O)[C@H](O)[C@H]2O)ccc1O", "target": "ALB", "test": "van't Hoff analysis", "conditions": "concentration not given", "quantity": "binding entropy change", "value": "0 kJ/(mol·K)"}
{"Compound": "COCCC(=O)N1CCC(Oc2ccccc2)C1 (stereo not shown)", "target": "DNA mismatch repair protein Msh6 (Homo sapiens, UniProt P52701)", "test": "binding, affinity selection mass spectrometry", "how to read": "baseline: other proteins in batch", "quantity": "fold enrichment", "value": 1.47}
{"Compound": "C1CCCC1.C1CCCC1.[Cl][W][Cl]", "target": "ALB", "test": "binding, van't Hoff fluorescence quenching", "conditions": "concentration not given", "quantity": "enthalpy change", "value": "1.42 kcal/mol"}
{"Compound": "N[C@H](CNC(=O)c1cc(Br)c(-c2ccccc2F)s1)C(=O)O", "target": "Glutamate receptor ionotropic, NMDA 1, with GluN2C (Grin1, Rattus norvegicus, UniProt P35439, S688A)", "test": "receptor activation", "test system": "rat", "conditions": "with: glutamate 300 µM", "quantity": "log EC50", "value": "-2.4 µM"}
{"Compound": "C=CC(=O)N1CCC(COCC(=O)N2CCN(c3nc(-c4cnc(N)nc4C(F)F)nc(N4CCOC[C@@H]4C)n3)CC2)CC1", "target": "CDK11B (Homo sapiens, UniProt P21127)", "test": "KINOMEscan", "conditions": "1 µM", "quantity": "remaining binding", "value": "100%"}
{"Compound": "C1=C/COCc2cc(ccc2OCCN2CCCC2)Nc2nccc(n2)-c2cccc(c2)COC/1", "target": "ULK1 (Homo sapiens, UniProt O75385)", "conditions": "concentration not given", "how to read": "baseline: DMSO control", "quantity": "remaining binding", "value": "90%"}
{"Compound": "O=C(COP(=O)(O)O)[C@@H](O)[C@H](O)[C@H](O)COP(=O)(O)O", "target": "Small ribosomal subunit protein uS5 (Homo sapiens, UniProt P15880)", "test": "thermal proteome profiling, measured: RPS2", "test system": "HepG2 cell lysate", "conditions": "concentration not given, 57 over 37 °C, mean", "how to read": "baseline: compound over control", "quantity": "thermal stability ratio", "value": 0.634}
{"Compound": "O=S(=O)(O)O", "target": "GUK1", "test": "enzyme activity, NADH-coupled", "conditions": "1 mM, with: ATP 15.62 µM", "quantity": "reaction velocity", "value": "0.0291 µM/s and 0.0306 µM/s and 0.027 µM/s"}
{"Compound": "NCCCCC(=O)O", "target": "SLC6A6 (Homo sapiens, UniProt P31641, Y138A)", "test": "binding, microscale thermophoresis", "conditions": "62.5 µM, room temperature, with: 50 nM labelled protein", "how to read": "higher = more binding", "quantity": "normalised MST signal", "value": -0.055}
{"Compound": "C#Cc1c(F)ccc2cc(O)cc(-c3ncc4c(N5CC6CCC(C5)N6)nc(OC[C@@]56CCCN5C[C@H](F)C6)nc4c3F)c12", "target": "GTPase KRas, GDP-bound (KRAS, Homo sapiens, UniProt P01116, Q61H)", "test": "SPR", "quantity": "dissociation rate constant koff", "value": "0.000683 ± 0.00014 s⁻¹"}
{"Compound": "NC/C(=C\\F)COc1cccc(Cn2c(=S)[nH]c(=O)c3[nH]cnc32)c1", "target": "rat L-type calcium channel", "test": "radioligand binding", "conditions": "10 µM, benzothiazepine site", "quantity": "inhibition", "value": "< 50%"}
{"Compound": "CCCCCCCCCCOC(C)=O", "target": "uncharacterized protein", "test": "binding, competitor, fluorescence displacement", "conditions": "20 µM, pH 7.4, with: 1-NPN 20 µM", "how to read": "baseline: 1-NPN alone", "quantity": "relative fluorescence", "value": "40.1%"}
{"Compound": "c1ccc(C(NCc2cccnc2)(c2ccccc2)c2ccccc2)cc1", "target": "KCNQ1 (Homo sapiens, UniProt P51787)", "test": "whole-cell patch clamp", "conditions": "300 pM", "quantity": "activation time constant", "value": "17 ± 3 ms"}
{"Compound": "CC[C@@H]1[C@H](F)C(=O)N[C@@H]1COc1nccc2cc(C(N)=O)c(OC)cc12", "target": "SNRK (Homo sapiens, UniProt Q9NRH2)", "test": "ATP-site probe binding, ActivX profiling", "test system": "THP-1 cell lysate", "conditions": "0.04 mM, Lys1 site", "quantity": "inhibition", "value": "9.5%"}
{"Compound": "C=C1CC/C=C(\\C)CC[C@@H]2[C@@H]1CC2(C)C", "target": "uncharacterized protein", "test": "binding, competitor, fluorescence displacement", "conditions": "20 µM, pH 7.4, with: 1-NPN 20 µM", "how to read": "baseline: 1-NPN alone", "quantity": "relative fluorescence", "value": "75.7%"}
{"Compound": "N[C@@H](Cc1ccccc1)C(=O)Nc1ccc2ccccc2c1", "target": "Puromycin-sensitive aminopeptidase (Rattus norvegicus, UniProt F1M9V7)", "test": "substrate", "quantity": "Km", "value": "50 µM"}
{"Compound": "O=C(c1ccc(I)cc1)N1CCC(n2cncc2-c2ccc(OS(=O)(=O)c3cccc4cnccc34)cc2)CC1", "target": "P2X purinoceptor 7 (P2RX7, Homo sapiens, UniProt Q99572)", "test": "inhibitor, whole-cell voltage clamp", "test system": "HEK293 stably expressing P2RX7", "conditions": "300 nM, 3 min preincubation, holding -60 mV, with: ATP 5 mM", "quantity": "ATP-gated current", "value": "inhibited"}
{"Compound": "CC(=O)N[C@H](C(=O)N1C[C@H](O)C[C@H]1C(=O)NCc1ccc(-c2scnc2C)cc1)C(C)(C)SCCCCCCNC(=O)C[C@@H]1N=C(c2ccc(Cl)cc2)c2c(sc(C)c2C)-n2c(C)nnc21", "target": "von Hippel-Lindau disease tumor suppressor, with elongin B/C (VHL, Homo sapiens, UniProt P40337)", "test": "ITC", "conditions": "25 °C, binary", "quantity": "−TΔS", "value": "-2.2 ± 0.5 kcal/mol"}
{"Compound": "O=C(O)c1ccc(Nc2ncc3c(n2)-c2ccc(Cl)cc2C(c2c(F)cccc2F)=NC3)cc1", "target": "Fyn(h)", "test": "kinase activity", "conditions": "1 µM", "quantity": "remaining activity", "value": "31%"}
{"Compound": "[O-][S+]1CCCCS1 (stereo not shown)", "target": "SOD1 (Homo sapiens, UniProt P00441, G94A)", "test": "LC-MS", "test system": "human whole blood", "conditions": "50 µM, 1 h, 37 °C", "quantity": "SOD1 dimer fraction", "value": "9.41%"}
{"Compound": "Clc1ccccc1C(c1ccccc1)(c1ccccc1)n1ccnc1", "target": "TRPM3 (Homo sapiens, UniProt Q9HCF6)", "test": "whole-cell patch clamp", "test system": "HEK-293T expressing hTRPM3-YFP", "conditions": "10 µM, at +80 mV, not DTT-treated, with: pregnenolone sulfate 40 µM", "quantity": "current density", "value": "-0.52 ± 0.2 pA/pF"}
{"Compound": "N[C@H](CNC(=O)c1ccc(-c2ccccc2)s1)C(=O)O", "target": "Glutamate receptor ionotropic, NMDA 1, with GluN2C (Grin1, Rattus norvegicus, UniProt P35439)", "conditions": "with: glutamate 300 µM", "quantity": "Hill slope", "value": 1.68}
{"Compound": "CCCCC[C@@H]1NC(=O)[C@@H]2CCCN2C(=O)[C@H](CC(=O)O)NC(=O)[C@H](Cc2ccc(O)cc2)NC(=O)[C@H](CO)NC(=O)[C@H]([C@@H](C)CC)NC(=O)[C@H](Cc2ccc(-c3ccccc3)cc2)NC(=O)[C@H](CC(C)C)NC(=O)[C@@H]2CCCN2C(=O)[C@@H](NC(=O)[C@H](CCCNC(=N)N)NC(=O)[C@H](CCCNC(=N)N)NC(C)=O)CSSC[C@@H](C(=O)N[C@@H](CCCNC(=N)N)C(=O)N[C@@H](CCCNC(=N)N)C(N)=O)NC1=O", "target": "GTPase KRas, GDP-bound (KRAS, Homo sapiens, UniProt P01116, G12D)", "test": "affinity selection mass spectrometry", "conditions": "mixture library 4, with: protein titration up to 2.5 µM", "how to read": "lower is stronger binding", "quantity": "lowest bound protein concentration", "value": "0.04 µM"}
{"Compound": "CCCCCCCCCCCCCC", "target": "uncharacterized protein", "test": "binding, competitor, fluorescence displacement", "conditions": "20 µM, pH 7.4, with: 1-NPN 20 µM", "how to read": "baseline: 1-NPN alone", "quantity": "relative fluorescence", "value": "74%"}
{"Compound": "Cc1cc(-c2ccnc3[nH]cc(F)c23)cc(F)c1[C@@]1(O)[C@H](C)CN(C2CCS(=O)(=O)CC2)C[C@@H]1C", "target": "JAK1 (Homo sapiens, UniProt P23458)", "test": "ATP/ADP probe binding, KiNativ", "test system": "HEK293T lysate", "conditions": "1 µM, activation loop domain 1", "quantity": "probe labelling inhibition", "value": "10.3%"}
{"Compound": "N#Cc1ccn2c(-c3ccncc3)c(-c3ccc(F)cc3)nc2c1", "target": "Carbon catabolite-derepressing protein kinase (SNF1, Candida albicans, UniProt P52497)", "test": "kinase binding, competitor, MIB/MS competition, measured: SNF1", "test system": "Candida albicans cell lysate", "conditions": "1 µM", "how to read": "baseline: DMSO", "quantity": "log2 fold change", "value": 0.012}
{"Compound": "O=c1ccn([C@@H]2O[C@H](COP(=O)(O)OP(=O)(O)O)[C@@H](O)[C@H]2O)c(=O)[nH]1", "target": "ABO (Homo sapiens, UniProt P16442, G235S/G268A/L266M/R176G/W181E)", "test": "methyl-TROSY NMR titration lineshape", "conditions": "mutant presaturated with H-disaccharide", "quantity": "koff", "value": "650 ± 10 s⁻¹"}
{"Compound": "Nc1nc2c(ncn2[C@@H]2O[C@H](COP(=O)(O)O)[C@@H](O)[C@H]2O)c(=O)[nH]1", "target": "GUK1", "test": "enzyme activity, NADH-coupled", "conditions": "500 µM, with: KCl 150 mM", "quantity": "reaction velocity", "value": "0.0737 µM/s and 0.0678 µM/s and 0.0603 µM/s"}
{"Compound": "Cn1c(=O)c2ccc(C(=O)Nc3ccccc3F)nc2n(C)c1=O", "target": "ADORA2A (Homo sapiens, UniProt P29274)", "test": "binding, radioligand competition", "conditions": "30 µM, with: [3H]ZM241385", "quantity": "displacement", "value": "24 ± 4%"}
{"note": "Some of these lines once more:"}
{"Compound": "N[C@H](CNC(=O)c1ccc(-c2ccccc2)s1)C(=O)O", "target": "Glutamate receptor ionotropic, NMDA 1, with GluN2C (Grin1, Rattus norvegicus, UniProt P35439)", "conditions": "with: glutamate 300 µM", "quantity": "Hill slope", "value": 1.68}
{"Compound": "NC/C(=C\\F)COc1cccc(Cn2c(=S)[nH]c(=O)c3[nH]cnc32)c1", "target": "rat L-type calcium channel", "test": "radioligand binding", "conditions": "10 µM, benzothiazepine site", "quantity": "inhibition", "value": "< 50%"}
{"Compound": "CCCCCCCCCCCCCC", "target": "uncharacterized protein", "test": "binding, competitor, fluorescence displacement", "conditions": "20 µM, pH 7.4, with: 1-NPN 20 µM", "how to read": "baseline: 1-NPN alone", "quantity": "relative fluorescence", "value": "74%"}
{"Compound": "O=C(O)c1ccc(Nc2ncc3c(n2)-c2ccc(Cl)cc2C(c2c(F)cccc2F)=NC3)cc1", "target": "Fyn(h)", "test": "kinase activity", "conditions": "1 µM", "quantity": "remaining activity", "value": "31%"}
{"Compound": "CCCCCCCCCCOC(C)=O", "target": "uncharacterized protein", "test": "binding, competitor, fluorescence displacement", "conditions": "20 µM, pH 7.4, with: 1-NPN 20 µM", "how to read": "baseline: 1-NPN alone", "quantity": "relative fluorescence", "value": "40.1%"}
